# Published values from different studies.
# Each line is one published result; not all experiments were run side by side. ± marks the error that the study gave.
# Technique: steady-state kinetics
# B1: enzyme (Acinetobacter baumannii, UniProt D0CBC8); chain MALVLDGRALAKQIEENLLVRVEALKAKTGRTPILATILVGDDGASATYVRMKGNACRRVGMDSLKIELPQETTTEQLLAEIEKLNANPDVHGILLQHPVPAQIDERACFDAISLAKDVDGVTCLGFGRMAMGEAAYGSATPAGIMTILKENNIEIAGKHAVVVGRSAILGKPMAMMLLQANATVTICHSRTQNLPELVKQADIIVGAVGKAELIQKDWIKQGAVVVDAGFHPRDGGGVGDIQLQGIEEIASAYTPVPGGVGPMTITTLIRQTVEAAEKALG
# B2: carbamoyl phosphate synthetase large subunit M174E/M378E (Escherichia coli, UniProt P00968); chain PKRTDIKSILILGAGPIVIGQACEFDYSGAQACKALREEGYRVILVNSNPATIMTDPEMADATYIEPIHWEVVRKIIEKERPDAVLPTMGGQTALNCALELERQGVLEEFGVTMIGATADAIDKAEDRRRFDVAMKKIGLETARSGIAHTMEEALAVAADVGFPCIIRPSFTEGGSGGGIAYNREEFEEICARGLDLSPTKELLIDESLIGWKEYEMEVVRDKNDNCIIVCSIENFDAMGIHTGDSITVAPAQTLTDKEYQIMRNASMAVLREIGVETGGSNVQFAVNPKNGRLIVIEMNPRVSRSSALASKATGFPIAKVAAKLAVGYTLDELMNDITGGRTPASFEPSIDYVVTKIPRFNFEKFAGANDRLTTQEKSVGEVMAIGRTQQESLQKALRGLEVGATGFDPKVSLDDPEALTKIRRELKDAGADRIWYIADAFRAGLSVDGVFNLTNIDRWFLVQIEELVRLEEKVAEVGITGLNADFLRQLKRKGFADARLAKLAGVREAEIRKLRDQYDLHPVYKRVDTCAAEFATDTAYMYSTYEEECEANPSTDREKIMVLGGGPNRIGQGIEFDYCCVHASLALREDGYETIMVNCNPETVSTDYDTSDRLYFEPVTLEDVLEIVRIEKPKGVIVQYGGQTPLKLARALEAAGVPVIGTSPDAIDRAEDRERFQHAVERLKLKQPANATVTAIEMAVEKAKEIGYPLVVRPSYVLGGRAMEIVYDEADLRRYFQTAVSVSNDAPVLLDHFLDDAVEVDVDAICDGEMVLIGGIMEHIEQAGVHSGDSACSLPAYTLSQEIQDVMRQQVQKLAFELQVRGLMNVQFAVKNNEVYLIEVNPRAARTVPFVSKATGVPLAKVAARVMAGKSLAEQGVTKEVIPPYYSVKEVVLPFNKFPGVDPLLGPEMRSTGEVMGVGRTFAEAFAKAQLGSNSTMKKHGRALLSVREGDKERVVDLAAKLLKQGFELDATHGTAIVLGEAGINPRLVNKVHEGRPHIQDRIKNGEYTYIINTTSGRRAIEDSRVIRRSALQYKVHYDTTLNGGFATAMALNADATEKVISVQEMHAQIK
# B3: TcA (Trypanosoma cruzi, UniProt Q4DRC4); chain MFIRLFAREEEGEKEGKICHMPREYEFAEKILFTEEEIRTRIKEVAKRIADDYKGKGLRPYVNPLVLISVLKGSFMFTADLCRALCDFNVPVRMEFICVSSYGEGLTSSGQVRMLLDTRHSIEGHHVLIVEDIVDTALTLNYLYHMYFTRRPASLKTVVLLDKREGRRVPFSADYVVANIPNAFVIGYGLDYDDTYRELRDIVVLRPEVYAEREAARQKKQRAIGSADTDRDAKREFHSKY
# B4: DGKE (Homo sapiens, UniProt P52429); chain MEAERRPAPGSPSEGLFADGHLILWTLCSVLLPVFITFWCSLQRSRRQLHRRDIFRKSKHGWRDTDLFSQPTYCCVCAQHILQGAFCDCCGLRVDEGCLRKADKRFQCKEIMLKNDTKVLDAMPHHWIRGNVPLCSYCMVCKQQCGCQPKLCDYRCIWCQKTVHDECMKNSLKNEKCDFGEFKNLIIPPSYLTSINQMRKDKKTDYEVLASKLGKQWTPLIILANSRSGTNMGEGLLGEFRILLNPVQVFDVTKTPPIKALQLCTLLPYYSARVLVCGGDGTVGWVLDAVDDMKIKGQEKYIPQVAVLPLGTGNDLSNTLGWGTGYAGEIPVAQVLRNVMEADGIKLDRWKVQVTNKGYYNLRKPKEFTMNNYFSVGPDALMALNFHAHREKAPSLFSSRILNKAVYLFYGTKDCLVQECKDLNKKVELELDGERVALPSLEGIIVLNIGYWGGGCRLWEGMGDETYPLARHDDGLLEVVGVYGSFHCAQIQVKLANPFRIGQAHTVRLILKCSMMPMQVDGEPWAQGPCTVTITHKTHAMMLYFSGEQTDDDISSTSDQEDIKATE
# B5: hdhb (Clostridium sardiniense, UniProt G9FRD6); chain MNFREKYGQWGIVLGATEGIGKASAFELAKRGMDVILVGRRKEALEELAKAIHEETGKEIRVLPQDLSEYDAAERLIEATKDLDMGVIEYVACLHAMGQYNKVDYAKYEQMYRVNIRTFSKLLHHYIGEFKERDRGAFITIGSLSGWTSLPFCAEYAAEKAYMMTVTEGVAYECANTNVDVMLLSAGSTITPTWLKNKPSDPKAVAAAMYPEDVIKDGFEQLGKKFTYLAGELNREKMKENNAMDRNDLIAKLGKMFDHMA
# B6: Paox H64Q (Mus musculus, UniProt Q8C0L6); chain MAFPGPRVLVVGSGIAGLGAAQKLCSHRAAPHLRVLEATASAGGRIRSERCFGGVVELGAHWIQGPSQDNPVFQLAAEFGLLGEKELSEENQLVDTGGHVALPSMIWSSSGTSVSLELMTEMARLFYGLIERTREFLNESETPMASVGEFLKKEISQQVASWTEDDEDTRKRKLAILNTFFNIECCVSGTHSMDLVALAPFGEYTVLPGLDCILAGGYQGLTDRILASLPKDTVAFDKPVKTIHWNGSFQEAAFPGETFPVLVECEDGARLPAHHVIVTVPLGFLKEHQDTFFEPPLPAKKAEAIKKLGFGTNNKIFLEFEEPFWEPDCQFIQVVWEDTSPLQDTALSLQDTWFKKLIGFLVQPSFESSHVLCGFIAGLESEFMETLSDEEVLLSLTQVLRRVTGNPQLPAAKSVRRSQWHSAPYTRGSYSYVAVGSTGDDLDLMAQPLPEDGTGTQLQVLFAGEATHRTFYSTTHGALLSGWREADRLVSLWDSQVEQSRPRL
# B7: pol D141A/E143A/G245D (Thermococcus kodakarensis, UniProt P77933); chain 1 MILDTDYITEDGKPVIRIFKKENGEFKIEYDRTFEPYFYALLKDDSAIEEVKKITAERHGTVVTVKRVEKVQKKFLGRPVEVWKLYFTHPQDVPAIRDKIREHPAVIDIYEYDIPFAKRYLIDKGLVPMEGDEELKMLAFAIATLYHEGEEFAEGPILMISYADEEGARVITWKNVDLPYVDVVSTEREMIKRFLRVVKEKDPDVLITYNGDNFDFAYLKKRCEKLGINFALGRDGSEPKIQRMDDRFAVEVKGRIHFDLYPVIRRTINLPTYTLEAVYEAVFGQPKEKVYAEEITTAWETGENLERVARYSMEDAKVTYELGKEFLPMEAQLSRLIGQSLWDVSRSSTGNLVEWFLLRKAYERNELAPNKPDEKELARRRQSYEGGYVKEPERGLWENIVYLDFR; chain 2 SLYPSIIITHNVSPDTLNREGCKEYDVAPQVGHRFCKDFPGFIPSLLGDLLEERQKIKKKMKATIDPIERKLLDYRQRAIKILAN; chain 3 NSYYGYYGYARARWYCKECAESVTAWGREYITMTIKEIEEKYGFKVIYSDTDGFFATIPGADAETVKKKAMEFLKYINAKLPGALELEYEGFYKRGFFVTKKKYAVIDEEGKITTRGLEIVRRDWSEIAKETQARVLEALLKDGDVEKAVRIVKEVTEKLSKYEVPPEKLVIHEQITRDLKDYKATGPHVAVAKRLAARGVKIRPGTVISYIVLKGSGRIGDRAIPFDEFDPTKHKYDAEYYIENQVLPAVERILRAFGYRKEDLRYQKTRQVGLSAWLKPKGT
# B8: enzyme A178R/D177A/M179H/P184R (Levilactobacillus brevis, UniProt Q03Q85); chain MKVTVVGCTHAGTFAIKQILAEHPDAEVTVYERNDVISFLSCGIALYLGGKVADPQGLFYSSPEELQKLGANVQMNHNVLAIDPDQKTVTVEDLTNHAQTTESYDKLVMTSGSWPIVPKIPGIDSDRVKLCKNWAHAQALIEDAKEAKRITVIGAGYIGAELAEAYSTTGHDVTLIARHARVMRKYFDADFTDVIEQDYRDHGVQLALGETVESFTDSATGLTIKTDKNSYETDLAILCIGFRPNTDLLKGKVDMAPNGAIITDDYMRSSNPDIFAAGDSAAVHYNPTHQNAYIPLATNAVRQGILVGKNLVKPTVKYMGTQSSSGLALYDRTIVSTGLTLAAAKQQGLNAEQVIVEDNYRPEFMPSTEPVLMSLVFDPDTHRILGGALMSKYDVSQSANTLSVCIQNENTIDDLAMVDMLFQPNFDRPFNYLNILAQAAQAKVAQSVNA
# B9: protein (Allochromatium vinosum, UniProt P45370); chain MFPIDIRPDKLTQEMLDYSRKLGQGMENLLNAEAIDTGVSPKQAVYSEDKLVLYRYDRPEGAPEAQPVPLLIVYALVNRPYMTDIQEDRSTIKGLLATGQDVYLIDWGYPDQADRALTLDDYINGYIDRCVDYLREAHGVDKVNLLGICQGGAFSLMYSALHPDKVRNLVTMVTPVDFKTPDNLLSAWVQNVDIDLAVDTMGNIPGELLNWTFLSLKPFSLTGQKYVNMVDLLDDPDKVKNFLRMEKWIFDSPDQAGETFRQFIKDFYQNNGFLNGGVVLGGQEVDLKDITCPVLNIFALQDHLVPPDASRALKGLTSSPDYTELAFPGGHIGIYVSGKAQKEVTPAIGKWLNER
# B10: thyA H147V (Escherichia coli, UniProt P0A884); chain MKQYLELMQKVLDEGTQKNDRTGTGTLSIFGHQMRFNLQDGFPLVTTKRCHLRSIIHELLWFLQGDTNIAYLHENNVTIWDEWADENGDLGPVYGKQWRAWPTPDGRHIDQITTVLNQLKNDPDSRRIIVSAWNVGELDKMALAPCVAFFQFYVADGKLSCQLYQRSCDVFLGLPFNIASYALLVHMMAQQCDLEVGDFVWTGGDTHLYSNHMDQTHLQLSREPRPLPKLIIKRKPESIFDYRFEDFEIEGYDPHPGIKAPVAI
# Chain of UniProt Q04049 (whole entry, looked up): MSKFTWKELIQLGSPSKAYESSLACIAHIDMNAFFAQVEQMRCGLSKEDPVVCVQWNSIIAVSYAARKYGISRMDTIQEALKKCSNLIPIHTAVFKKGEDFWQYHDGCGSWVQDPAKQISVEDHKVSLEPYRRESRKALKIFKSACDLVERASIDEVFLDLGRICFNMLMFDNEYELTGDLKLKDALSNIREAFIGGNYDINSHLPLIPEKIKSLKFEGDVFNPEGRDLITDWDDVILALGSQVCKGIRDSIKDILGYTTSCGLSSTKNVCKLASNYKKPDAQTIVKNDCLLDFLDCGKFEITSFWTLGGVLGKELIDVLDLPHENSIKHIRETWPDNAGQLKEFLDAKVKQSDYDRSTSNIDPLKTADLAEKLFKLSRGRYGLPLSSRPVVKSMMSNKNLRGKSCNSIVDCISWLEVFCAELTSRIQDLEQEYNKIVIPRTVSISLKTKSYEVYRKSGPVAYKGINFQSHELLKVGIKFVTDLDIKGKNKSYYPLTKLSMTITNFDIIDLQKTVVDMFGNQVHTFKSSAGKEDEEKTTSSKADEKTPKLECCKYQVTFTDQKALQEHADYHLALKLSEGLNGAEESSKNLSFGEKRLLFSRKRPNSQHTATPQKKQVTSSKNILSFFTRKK
Molecule,substrate,setting,kcat [s⁻¹]
B1 (enzyme),Nc1nc2c(c(=O)[nH]1)N1CN(c3ccc(C(=O)N[C@@H](CCC(=O)O)C(=O)O)cc3)C[C@H]1CN2,"pH 7.3, 27 °C",88.3 ± 2
B2,Nc1ncnc2c1ncn2[C@@H]1O[C@H](COP(=O)(O)OP(=O)(O)OP(=O)(O)O)[C@@H](O)[C@H]1O,"pH 7.6, KCl 100 mM, with: glutamine 10 mM, ornithine 10 mM",0.043 ± 0.002
B3 (TcA),Nc1nc2nc[nH]c2c(=O)[nH]1,"pH 8.3, 37 °C, apparent, with: PRPP 1 mM, MgCl2 12 mM",32 ± 1
B4 (DGKE),CCCCC/C=C\C/C=C\C/C=C\C/C=C\CCCC(=O)O[C@@H](CO)COC(=O)CCCCCCCCCCCCCCCCC,"pH 7.5, 25 °C, mixed micelles, surface mole percent, not purified, with: 0.1 mM ATP; 5 mM MgCl2",10.2 ± 0.3
B5 (hdhb),NC(=O)c1ccc[n+]([C@@H]2O[C@H](COP(=O)(O)OP(=O)(O)OC[C@H]3O[C@@H](n4cnc5c(N)ncnc54)[C@H](OP(=O)(O)O)[C@@H]3O)[C@@H](O)[C@H]2O)c1,"pH 8, 25 °C, cofactor varied",2.4 ± 0.16
B6 (Paox H64Q),CC(=O)NCCCNCCCCNCCCN,"pH 10, 30 °C",4.5 ± 0.2
"RAD30 (Saccharomyces cerevisiae, UniProt Q04049)",Cc1cn([C@H]2C[C@H](O)[C@@H](COP(=O)(O)OP(=O)(O)OP(=O)(O)O)O2)c(=O)[nH]c1=O,"pH 7.5, room temperature, apparent Km, apparent, with: dG 10 nM primer-template",0.00145 ± 0.000167
LovD A86V/C40A/C60N (Aspergillus terreus),CCC(C)(C)C(=O)SCCC(=O)OC,"25 °C, 10% DMSO, with: 2 mM MJA",0.0132 ± 0.0005
B7 (pol D141A/E143A/G245D),Nc1nc2c(ncn2[C@H]2C[C@H](O)[C@@H](COP(=O)(O)OP(=O)(O)OP(=O)(O)O)O2)c(=O)[nH]1,"pH 8, 55 °C",7 ± 0.9
B8 (enzyme A178R/D177A/M179H/P184R),NC(=O)C1=CN([C@@H]2O[C@H](COP(=O)(O)OP(=O)(O)OC[C@H]3O[C@@H](n4cnc5c(N)ncnc54)[C@H](OP(=O)(O)O)[C@@H]3O)[C@@H](O)[C@H]2O)C=CC1,"pH 7.5, 37 °C, per site",123 ± 19
B9 (protein),C#CC[C@@H](O)CC(=O)SCCNC(=O)CCNC(=O)[C@H](O)C(C)(C)COP(=O)(O)OP(=O)(O)OC[C@H]1O[C@@H](n2cnc3c(N)ncnc32)[C@H](O)[C@@H]1OP(=O)(O)O,"pH 7.8, 30 °C",2.99
B10 (thyA H147V),Nc1nc2c(c(=O)[nH]1)N1CN(c3ccc(C(=O)N[C@@H](CCC(=O)O)C(=O)O)cc3)C[C@H]1CN2,"25 °C, substrate inhibition by CH2H4folate, cofactor varied, with: dUMP 200 µM",0.61 ± 0.04
"Ptb (Listeria monocytogenes, UniProt Q8Y7B7)",CCC(=O)SCCNC(=O)CCNC(=O)[C@H](O)C(C)(C)COP(=O)(O)OP(=O)(O)OC[C@H]1O[C@@H](n2cnc3c(N)ncnc32)[C@H](O)[C@@H]1OP(=O)(O)O,"pH 7.5, 25 °C, apparent",519 ± 25.8

# Excerpt of the above:
Molecule,substrate,setting,kcat [s⁻¹]
"RAD30 (Saccharomyces cerevisiae, UniProt Q04049)",Cc1cn([C@H]2C[C@H](O)[C@@H](COP(=O)(O)OP(=O)(O)OP(=O)(O)O)O2)c(=O)[nH]c1=O,"pH 7.5, room temperature, apparent Km, apparent, with: dG 10 nM primer-template",0.00145 ± 0.000167
LovD A86V/C40A/C60N (Aspergillus terreus),CCC(C)(C)C(=O)SCCC(=O)OC,"25 °C, 10% DMSO, with: 2 mM MJA",0.0132 ± 0.0005
